Measurements collected from several papers.
Compare with care: the assays were run in different laboratories. ± marks the error that the study gave.

Compound	cell line	test	conditions	scale	endpoint	result
COc1cc(CNC(=O)C[C@H](C)CCC=C(C)C)ccc1OCc1cn(-c2ccc(Cl)c(Cl)c2)nn1	Hs-578T breast cancer cells	SRB	10 µM, 48 h		growth percent	57%
COc1cc(CN2CCN(c3ccc(C)cc3)CC2)c2cc3[n+](cc2c1O)CCc1cc2c(cc1-3)OCO2	HeLa and MDCK	SRB	48 h	reference: CC50 MDCK over IC50 HeLa	therapeutic index	32.7
COc1cc2c(OC3OCC(OC)C(OC)C3OC(=O)c3ccc(Br)cc3)c3c(c(-c4ccc5c(c4)OCO5)c2cc1OC)C(=O)OC3 (stereo not drawn)	CAL-27	qRT-PCR	concentration not given, 72 h		Bax/Bcl-2 mRNA ratio	increased
COc1cc(CNC(=O)C[C@H](C)CCC=C(C)C)ccc1OCc1cn(-c2ccccc2[N+](=O)[O-])nn1	DU-145	SRB	10 µM, 48 h		growth percent	77.9%
CC/C=C\C/C=C\C/C=C\C/C=C\C/C=C\C/C=C\CCC(=O)Nc1ccn(C2OC(CO)C(O)C2(F)F)c(=O)n1 (stereo not drawn)	OVCAR-5	NCI60 screen			TGI	22.5 µM
Cc1cc(Nc2ccc(NC(=O)c3ccc(NC(=O)c4ccncc4)cc3)cc2)nc(N)n1	KG-1 with methylated CMV-luciferase	luciferase reporter gene	5 µM, 24 h	reference: untreated	reporter reactivation	1 ± 0.1 fold
CC(=O)OC[C@H]1O[C@@H](Sc2sc(C(=O)c3ccc(Br)cc3)c(N)c2-c2nc3ccccc3s2)[C@H](OC(C)=O)[C@@H](OC(C)=O)[C@@H]1OC(C)=O	EKVX	SRB	10 µM, 48 h	reference: untreated	growth	72.7%
O=C(N1CCCC1)n1cc(-c2ccc(-c3ccccc3)cc2)nn1	mouse T-cells	N-terminal labeled proteins, N-terminal enrichment proteomics, item: EFHD2	1 nM, 6 h	reference: DMSO	SILAC ratio	0.97 ± 0.18
O=c1[nH]c(N2CCC3(CC2)CN(CCO)c2cc(F)cc(F)c23)nc2c1CCCC2	COLO 320DM	qRT-PCR, item: AXIN2 and MYC	concentration not given, 48 h		mRNA level	decreased
COc1cc(CNC(=O)C[C@H](C)CCC=C(C)C)ccc1OCc1cn(-c2cccc(C(F)(F)F)c2)nn1	MDA-MB-435 melanoma cells	SRB	10 µM, 48 h		growth percent	74.9%
COc1ccc(S(=O)(=O)N2CCc3ccccc3C2)cc1N1CCN(C(=O)c2ccc(F)cc2C(F)(F)F)CC1	mouse midbrain dopamine neurons		7.5 nM, 5 days, normalized to total cells		TH-positive neuron count	387 ± 15
COc1cc(CNC(=O)C[C@H](C)CCC=C(C)C)ccc1OCc1cn(-c2cccc([N+](=O)[O-])c2)nn1	LOX IMVI	SRB	10 µM, 48 h		growth	71.4%
CCN1CCC2(CC1)C/C(=N\NC(=O)Nc1ccccc1)c1ccccc1O2	A549	annexin V-FITC/PI	concentration not given, 24 h, Total apoptosis		apoptotic cells	39.7%
COc1cc(CNC(=O)C[C@H](C)CCC=C(C)C)ccc1OCc1cn(-c2ccccc2F)nn1	ACHN	SRB	10 µM, 48 h		growth percent	65.3%
Cc1ccc(Nc2ncc3c(n2)N(C)C(=O)N(c2cc(NC(=O)c4ccc(CN5CCC(N(C)C)C5)c(C(F)(F)F)c4)ccc2C)C3)cn1 (stereo not drawn)	Huh-7	cell growth or viability, ATP luminescence	72 h		GI50	0.034 µM
CC1(C)OC(=O)C[C@H](O)[C@]2(C)[C@H]3CC[C@@]4(C)[C@H](c5ccoc5)OC(=O)[C@H]5O[C@]54[C@]3(C)C(=O)C[C@@H]12	COLO 320 (ABCB1-overexpressing, multidrug-resistant)	cell growth	200 µM starting, CI at ED50, together with: doxorubicin, ratio 742.5:1		combination index	0.82
Cc1ncsc1-c1ccc([C@H](C)NC(=O)[C@@H]2C[C@@H](O)CN2C(=O)[C@@H](NC(=O)[C@H]2C[C@H](C(=O)N3CCC(c4cc(Nc5cc(C#N)ccn5)nc(N5CCC(F)(F)C5)c4)CC3)C2)C(C)(C)C)cc1	HNSCC cell lines	cell viability, colony formation			effective concentration	500 nM
CC(C)Cc1ccc(C(C)C(=O)N/N=C/c2ccc(OCC(=O)N/N=C/c3c(O)ccc4ccccc34)cc2)cc1 (stereo not drawn)	U87 MG	MTT	80 µM, 48 h		viability	99%
Nc1nc2cc(CC[C@H]3C[C@@H](n4ccc5c(N)ncnc54)[C@H](O)[C@@H]3O)ccc2cc1Br	NCI-H1048	SmD1/3 dimethylation, item: SmD1/3-Me2	1 nM, 48 h		inhibition	> 50%
CC(=O)OC[C@H]1O[C@@H](Sc2sc(C(=O)c3ccc(C)cc3)c(N)c2-c2nc3ccccc3s2)[C@H](OC(C)=O)[C@@H](OC(C)=O)[C@H]1OC(C)=O	OVCAR-5	SRB	10 µM, 48 h	reference: untreated	growth	99.7%
COc1cc(CNC(=O)C[C@H](C)CCC=C(C)C)ccc1OCc1cn(-c2cccc(Cl)c2)nn1	Hs-578T breast cancer cells	SRB	10 µM, 48 h		growth percent	52.5%
CCOC(=O)c1csc2nc(-c3cccc(NC(=O)c4cc5cc(NC(=O)C(C)Cl)ccc5n4Cc4ccc(C(F)(F)F)cc4)c3)cn12 (stereo not drawn)	RAW264.7		10 µM, together with: LPS	reference: control	intracellular GSH level	decreased
O=Cc1c(O)ccc2ccccc12	HUVEC	RNA sequencing, item: CCL2	75 µM, 24 h	reference: DMSO	log2 fold change	-2.99
COc1cc(CNC(=O)C[C@H](C)CCC=C(C)C)ccc1OCc1cn(-c2ccc([N+](=O)[O-])cc2)nn1	Hs-578T breast cancer cells	SRB	10 µM, 48 h		growth percent	82%

For quick reference, copied from above:
Compound	cell line	test	conditions	scale	endpoint	result
CC(C)Cc1ccc(C(C)C(=O)N/N=C/c2ccc(OCC(=O)N/N=C/c3c(O)ccc4ccccc34)cc2)cc1 (stereo not drawn)	U87 MG	MTT	80 µM, 48 h		viability	99%
Nc1nc2cc(CC[C@H]3C[C@@H](n4ccc5c(N)ncnc54)[C@H](O)[C@@H]3O)ccc2cc1Br	NCI-H1048	SmD1/3 dimethylation, item: SmD1/3-Me2	1 nM, 48 h		inhibition	> 50%
CC(=O)OC[C@H]1O[C@@H](Sc2sc(C(=O)c3ccc(C)cc3)c(N)c2-c2nc3ccccc3s2)[C@H](OC(C)=O)[C@@H](OC(C)=O)[C@H]1OC(C)=O	OVCAR-5	SRB	10 µM, 48 h	reference: untreated	growth	99.7%
